Assay results pooled from the literature.
Protocols differ between the studies behind these lines.
Cell line: HOP-62

Compound | test | setting | how to read | quantity | result
CCCN1CCN(c2ccc3nc(-c4ccc5nc(-c6cc(OC)ccc6OC)[nH]c5c4)[nH]c3c2)CC1 | SRB | 10 µM, 48 h |  | growth percent | 117%
CCCCCCCCCCCCCCCCCCOc1cccc(CC(=O)OCC[N+]2(C)CCCCC2)c1 | SRB | 10 µM |  | growth inhibition | < 0%
Cc1cc(C)n(C(=S)[S][Au][PH](CCCCCC[PH]([Au][S]C(=S)n2nc(C)cc2C)(c2ccccc2)c2ccccc2)(c2ccccc2)c2ccccc2)n1 | cell growth, NCI-60 screen | non-small cell lung cancer |  | log10 TGI | -5.61
CCCCCCCCCCCCCCCCCCOc1ccc(CC(=O)OCC[N+]2(C)CCCCC2)cc1 | SRB | 10 µM |  | growth inhibition | < 0%
O=C(Nc1nnc2n3c(Cc4ccccc4)n[nH]c3nc(-c3ccc(Cl)cc3)c1-2)c1ccccc1 | SRB | 10 µM, NCI60 single-dose screen | reference: untreated | cell growth | 97%
CCCN1CCN(c2ccc3[nH]c(-c4ccc5[nH]c(-c6ccc(OCC)c(OCC)c6)nc5c4)nc3c2)CC1 | SRB | 10 µM, 48 h |  | growth percent | -64.9%
Cn1cncc1C1=CN(c2ncnc3[nH]cnc23)CCS1 |  | lung cancer |  | GI50 | 27.5 µM
O=C(Nc1nnc2[nH]c(=S)[nH]c(-c3ccc(Cl)cc3)c1-2)c1ccccc1 | SRB | 10 µM, NCI60 single-dose screen | reference: untreated | cell growth | 94.7%
CCCc1n(Cc2ccc3ccccc3c2)c2ccccc2[n+]1Cc1ccc2ccccc2c1.[Br-] | NCI60 five-dose screen |  |  | TGI | 2.03 µM
O=c1ccn(Cc2cn(-c3c4ccccc4nc4ccccc34)nn2)c(=O)[nH]1 | NCI60 single-dose screen | 10 µM |  | growth percentage | 97.7%
C#C[C@@]1(O)[C@@H](CO)O[C@@H](n2cc(F)c3c(N)ncnc32)[C@@H]1O | SRB | NCI-60 screen |  | TGI | 7.79 µM
CCOc1ccc(-c2nc3cc(-c4nc5cc(N6CCN(C)CC6)ccc5[nH]4)ccc3[nH]2)cc1OCC | SRB | 10 µM, 48 h |  | growth percent | 16.7%
O=c1ccn(Cc2cn(-c3cc4ccccc4oc3=O)nn2)c(=O)[nH]1 | NCI60 single-dose screen | 10 µM |  | growth percentage | 84.4%
COc1ccc(OC)c(-c2nc3ccc(-c4nc5ccc(N6CCN(C)CC6)cc5[nH]4)cc3[nH]2)c1 | SRB | 10 µM, 48 h |  | growth percent | 103%
Cc1cc(-c2ccccc2)n(-c2nc(-c3ccc(Cl)cc3)c3c(NC(=O)c4ccccc4)nnc-3[nH]2)n1 | SRB | 10 µM, NCI60 single-dose screen | reference: untreated | cell growth | 98%
[Br-].c1ccc2cc(Cn3c[n+](Cc4ccc5ccccc5c4)c4ccccc43)ccc2c1 | NCI60 five-dose screen |  |  | TGI | 2.98 µM
O=C(Nc1nnc2n3c(=S)[nH][nH]c3nc(-c3ccc(Cl)cc3)c1-2)c1ccccc1 | SRB | 10 µM, NCI60 single-dose screen | reference: untreated | cell growth | 64.6%
Cc1cc(=O)[nH]c(=O)n1Cc1cn(-c2cc3ccccc3oc2=O)nn1 | NCI60 single-dose screen | 10 µM |  | growth percentage | 89.4%
CCOC(=O)CSc1nc(-c2ccc(Cl)cc2)c2c(NC(=O)c3ccccc3)nnc-2[nH]1 | SRB | 10 µM, NCI60 single-dose screen | reference: untreated | cell growth | 89.5%
CCN(CC)c1ccc(C=NNC(=O)CSc2nc3ccccc3c(=O)n2Cc2ccc(S(N)(=O)=O)cc2)c(O)c1 | NCI five-dose screen |  |  | TGI | > 100 µM
CN1CCN(c2ccc3[nH]c(-c4ccc5[nH]c(-c6ccc(C(F)(F)F)cc6)nc5c4)nc3c2)CC1 | SRB | 10 µM, 48 h |  | growth percent | 51.3%
Cc1cc(=O)[nH]n1-c1nc(-c2ccc(Cl)cc2)c2c(NC(=O)c3ccccc3)nnc-2[nH]1 | SRB | 10 µM, NCI60 single-dose screen | reference: untreated | cell growth | 85.5%
CCCCN1CCN(c2ccc3[nH]c(-c4ccc5[nH]c(-c6ccc(OCC)cc6)nc5c4)nc3c2)CC1 | SRB | 10 µM, 48 h |  | growth percent | 46.2%
Cc1n(Cc2ccc3ccccc3c2)c2ccccc2[n+]1Cc1ccc2ccccc2c1.[Br-] | NCI60 five-dose screen |  |  | TGI | 3.24 µM
CCCCCCCCCCCCCCCCCCOc1ccc(CC(=O)OCC[N+]2(C)CCCC2)cc1 | SRB | 10 µM |  | growth inhibition | < 0%

Excerpt of the above:
Compound | test | setting | how to read | quantity | result
Cc1cc(=O)[nH]c(=O)n1Cc1cn(-c2cc3ccccc3oc2=O)nn1 | NCI60 single-dose screen | 10 µM |  | growth percentage | 89.4%
[Br-].c1ccc2cc(Cn3c[n+](Cc4ccc5ccccc5c4)c4ccccc43)ccc2c1 | NCI60 five-dose screen |  |  | TGI | 2.98 µM
Cc1n(Cc2ccc3ccccc3c2)c2ccccc2[n+]1Cc1ccc2ccccc2c1.[Br-] | NCI60 five-dose screen |  |  | TGI | 3.24 µM
CCCCCCCCCCCCCCCCCCOc1ccc(CC(=O)OCC[N+]2(C)CCCC2)cc1 | SRB | 10 µM |  | growth inhibition | < 0%
